Results pooled from the literature.
Each numbered part is a random draw from the data of one study; scales do not carry over between parts.

Series 1
Target: Interferon regulatory factor 5, full length, phosphomimetic (IRF5, Homo sapiens, UniProt Q13568-2, residues 1-514, K96S/S451D/S453D/S456D/S462D)
Technique: protein-binding microarray
Molecule type: double-stranded DNA, one strand shown
Sample: in vitro
Concentration: 250 nM
Setting: 60-bp whole probe
Added: salmon DNA 0.4 mg/ml
Reference: random background probes
Direction: higher = stronger binding
Shared flanks, not repeated: GCCTAGCAC … GTCTTGATTCGCTTGACGCTGCTG
Oligonucleotide	log fluorescence [z-score]
GACGGACTGCTTCTCCTGATGTGCTAG	-0.571
TTAGATCCCAGTTTCGATTAGTGCTAG	9.72
GACGGTATCGGTTTCGGAACGTGCTAG	9.33
TCAGTTTCCTCTTTCTTACTGTGCTAG	2.16
TTAGAACTGACACTGGATTAGTGCTAG	-0.121
GACGGTATCCTTTACCTGACGTGCTAG	-0.00473
TCATTCTTGGGACTCACACTGTGCTAG	-0.046
CTTAGTATTTTTTTCCAGAGGTGCTAG	0.453
GACGGTATCGACTAACGGGACGTGCTA	2.91
GAGATTTTCATTATTGCTTCGTGCTAG	2.27
TCAGGTTTCGGTTCCGGTTAGTGCTAG	9.85
GACGGTTCCGGGTATCGGGACGTGCTA	0.68
TCCACTTTCTTTTGCTTGTTGTGCTAG	3.08
GGCGGTATCCTTCTCCTGACGTGCTAG	0.0423
TTAGGTATCGGGTGTCGGTTAGTGCTA	3.09
ATCATTTTCGTTTTTATTATGTGCTAG	7.42
CCCTAATTCTGATTGGATAAGTGCTAG	0.043
TTAGGTTTCCTTCTTCTTTAGTGCTAG	1.24
CTCTTCTTTTTTTTCTTTAAGTGCTAG	1.15
GACGATTCCGGTTTCGAGACGTGCTAG	3.78
GGACTGTCAGCCACTTTTTGGTGCTAG	-0.188

Series 2
Target: Histone acetyltransferase KAT6A, both winged helices, GST fusion (KAT6A, Homo sapiens, UniProt Q92794, residues 1-181)
Technique: protein binding microarray
Molecule type: double-stranded DNA, one strand shown
Sample: in vitro
Concentration: not given
Setting: 8-mer, flanks averaged, mean of 2 arrays, mostly near background
Reference: not given
Direction: higher = stronger binding
Residues (chain): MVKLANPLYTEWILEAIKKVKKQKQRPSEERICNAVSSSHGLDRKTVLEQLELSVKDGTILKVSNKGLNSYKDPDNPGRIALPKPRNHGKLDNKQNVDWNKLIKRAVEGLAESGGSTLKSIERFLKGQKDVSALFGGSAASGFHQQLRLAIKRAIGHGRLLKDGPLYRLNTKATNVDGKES
Oligonucleotide	E-score
CCGGGCCC	0.22
ACAAAAGC	-0.0363
CGCAAATA	0.0316
CCGCAAGC	0.137
GCCTCTCA	-0.202
TCGAGCGA	0.00415
CATGATAA	-0.079
TTGTCAAA	-0.181
CCGCTAGA	0.222
GGTACGTA	-0.0962
CAATATAG	-0.102
CTTTCGTC	-0.0498
CAATACAC	0.0214
ATGTCCCG	0.219
AAGCAATC	-0.0404
TCTGCGCA	0.175
CTAAAGTA	-0.145
CCTATCCA	-0.235
GCGTGCAC	0.0643
CGAGCCCG	0.224
CAGTTGTA	0.0877
AATCTTTG	-0.219
GGGAGTAC	-0.0283
CAATATAC	-0.0659
CCGAATTC	0.172

Series 3
Target: RNA binding protein fox-1 homolog 2, RRM domain, GST-SBP tag (RBFOX2, Homo sapiens, UniProt O43251-10, residues 100-194)
Technique: RNA Bind-n-Seq
Molecule type: RNA
Sample: in vitro
Concentration: 365 nM
Setting: natural RNA segment, single round, ends assumed
Reference: no-protein control
Direction: higher = stronger binding
Shared flanks, not repeated: GGGAGUUCUACAGUCCGACGAUC … UGGAAUUCUCGGGUGCCAA
Residues (chain): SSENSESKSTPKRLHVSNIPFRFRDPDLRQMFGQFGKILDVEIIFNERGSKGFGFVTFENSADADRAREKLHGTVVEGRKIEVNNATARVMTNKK
Oligonucleotide	RBNS enrichment (R)
UAGUUUAGUAAACUGGCCCAUUUGGGCUGAAGAACUUGUGUGGAAAGAGUCCAAACAACUCAUCAUUUUCUUCUCUGCAUAUCUCACCACAAUUGUAGGAUUUUUUUUUC	0.549
CCUCUCCCAGGCUUAGUCAGCUACUCCUUUCUCUGGCCAGAGAAUCCCAUAAGGAAAUAGCCCCCACGCCAGGGCUGCUCUGCUCAGAGGAAGGGAAGGCUGGGCUGUGG	0.236
GUGCGCCACGUGUGGCCUCCCUGUGACCGGCCGCUGCGUGUCGGCCCUGGGUCGCCGCUUCCACCCGGACCACUUCACAUGCACCUUCUGCCUGCGCCCGCUCACCAAGG	0.698
UUAUAGAUCUUUUGACAGUUUCUCUGUUUAGGGGAGCCUAGACUGAUAUCAAGUUUCUUCAUAUCAAAGCUUCAUUGGUGACCUCAUUUGCUUUACAAGUGACCAGCCAU	0.195
UUGGCCCCAAGCCUGGGACUUGAGCCAUCGUAACUCACUAACAGGGAGAAUUAGCUAGUAGCAAUGUGCCUUGAUGAAGAUUUCCUGCAGGCAGCAAAACACCAAAUCAC	0.383
ACAAGAGCAGCCUGUGGCAUCUUUGCCUUGGGCUGCUCCUCAUGGUGGGUUCAGGGGACUCAGCCCUGAGGUGAAAGGGAGCUAUCAGGAACAGCUAUGGGAGCCCCAGG	0.414
AGGUUGCCACCCUUCAUAGAGUUUAGGCAUGCAGUUUGCUUAGCCAGUGUAGGAAGCCUCAUGAGAACAGAACCAUUAACAGCCAGAGUGCCAAUGGUGGGAUCAGCAGG	0.497
CCAACCCCAACAGACCCGUAGGGGGAGAAAAGGGAGGAAAAAAGUAAUUUUAAGGGGCCAAAGCUUUCCCUGAAGCAACCAAAGAUAUAUCCAAGUGCUUCCUCCAAGUC	0.249
CUUGCUGGUGUCCUGGGCAGCACCAUGAAUGCCUUUACCAAGACAUGCCAAGUUGGAUCCCCCGAAUGAAGCAGAUGUGGCUGUGGUGUGACCCUUGCUCCCUGCUACAC	0.364
GGCGUUGCUAGGAUUGCGUCAGUUUUCCUGUUUGCACUAUUUCUUUUUGUAACAGUGACCCUGUCUUAAGUCUUUCAGAUCUCUUUGCUUUGAAACUUCGUCGAUUCCAU	0.208
UAUAGGAGCCCUUGAAUGAAGCUGUGAAUGGAGAGGUUUUCUCUAUAAACCUAUGUGGUAGCCCCCCCCCCGGCCCCCCAAAUGUCCUCAUCUCAGGGCCUCACUUUCUG	0.73
UAUACAAAGGUACUUGCCCUUUCCCUUUGUAAACUACAUUUGACAUGGAUUAAAACAGUAUAAACAACUGCUGUCUGUGUUUGAAGAUCUUCUGGGAAGGUGGUGGCUGA	0.348

Series 4
Target: Sal-like protein 4, full length isoform B (SALL4, Homo sapiens, UniProt Q9UJQ4-2, residues 1-616)
Technique: universal PBM
Molecule type: double-stranded DNA, one strand shown
Sample: in vitro
Concentration: not given
Setting: 8-mer, flanks averaged, mean of replicates
Direction: higher = stronger binding
Oligonucleotide	E-score
GATGATAA	0.238
ATATTCCC	0.274
AAACACGG	-0.0483
CTCCACAC	-0.0722
GCTTTGCA	-0.225
ATGCATGC	0.0965
AATTCCAA	0.242
GGGGCACA	-0.117
GCCACAGC	-0.314
GATGGTGA	-0.1
CGGCAGCC	-0.433
AGAAGTAC	0.0343
AACAGCGT	0.00761
GGTTTTTA	0.158
GTCTTAAA	0.00531
CTTTAGAC	0.111
ATGCACCG	-0.121
CCACCGGG	-0.372
AATGATGT	0.238
AGGTTAAT	0.146

Series 5
Target: Centromere-binding protein 1, full length, His-tagged (CBF1, Saccharomyces cerevisiae, UniProt P17106, residues 1-351)
Sequence of UniProt P17106 (whole entry, looked up): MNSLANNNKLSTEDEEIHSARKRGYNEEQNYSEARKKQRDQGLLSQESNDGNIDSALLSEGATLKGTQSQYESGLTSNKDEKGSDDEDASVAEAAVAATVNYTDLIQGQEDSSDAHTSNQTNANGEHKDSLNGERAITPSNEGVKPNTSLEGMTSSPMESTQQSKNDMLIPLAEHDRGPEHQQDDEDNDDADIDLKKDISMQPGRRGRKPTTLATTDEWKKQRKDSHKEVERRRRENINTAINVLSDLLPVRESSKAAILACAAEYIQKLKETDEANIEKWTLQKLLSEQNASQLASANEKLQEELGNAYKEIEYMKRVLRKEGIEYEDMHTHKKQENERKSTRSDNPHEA
Technique: competition protein-binding microarray
Molecule type: double-stranded DNA, one strand shown
Sample: in vitro
Concentration: 2 µM
Setting: whole 60-bp probe, lowest competitor level
Added: Pho4 competitor, 0.05 µM
Direction: higher = stronger binding
Shared flanks, not repeated: … GTCTTGATTCGCTTGACGCTGCTG
Oligonucleotide	fluorescence intensity
CTTCTGTAAATTTGCTTTGTGGGTGGACGCGCCCCG	67.9 a.u.
CATATTTATGACTGTCACATGATATTGAGGTTACTC	1790 a.u.
CGTCAATTAAAATGTTACGTGAGATGGGTTAAATAC	86.1 a.u.
CATACCCAACCTTGTCACTCTACTTAAGATATTTGT	83.1 a.u.
CTAACGAAGGTTTGTAGAGTGGGTGACAAGCCAAGT	54.9 a.u.
AGTATGCCCATCAGCCTCGTGACGGATGAGGATCTC	262 a.u.
CAACACTGGCGGGTCCACGTGTTGGCTAGCCTCACC	581 a.u.
CGGGGTTAAGTTTGGATAGTGGGTGGCTTGCAGCAG	67.1 a.u.
ATGAAGGTTGGCGACCACGTGGTCGTTGATGCTGCC	2090 a.u.
GTCTTGTCTCATTGTAGAGTGGGTGTCCCCACTTCA	81.6 a.u.
AAACCACAGTACTGTCACACTCTACTACCATCCAGT	72.9 a.u.
TAGAACCAGTATCCACACGTGGTGACAAAAACTCGA	1080 a.u.
CGTCCTAGTGATTTGCACGTGTTTTCCATGAGGAAG	1940 a.u.
CACAGACCTTACTTCCACGTTAGTGTCATCGAAGAT	80.2 a.u.
GCTCAAGCGTTCGGACGCGTGAAATGCTTCAACTGA	60.8 a.u.
GTCTGAAGTAAAAAGCACGATGATCGTAGTCCACTT	95.7 a.u.
ATTTCCTCCCGTCTCTGCGTGCCAGACGGGATCAGC	62.3 a.u.
CGTCCTAGTGATTCCCACGTGTTTTCCATGAGGAAG	870 a.u.
AAATTACTAAGTTGCTAAGTGGGTGACGCCGTATGA	76.8 a.u.
GGTGCCCAGAGTAAAGGCGTGATGGTGCAAAGACTC	101 a.u.
CATACCCAACCTTGGCGTGTGGGTGAAGATATTTGT	59.8 a.u.
CATACCCAACCTTGTCACGCAACTTAAGATATTTGT	135 a.u.
AAATTACTAAGTTGACACGTGGGTGACGCCGTATGA	1150 a.u.

Excerpt of the above (series 3):
Oligonucleotide	RBNS enrichment (R)
UUAUAGAUCUUUUGACAGUUUCUCUGUUUAGGGGAGCCUAGACUGAUAUCAAGUUUCUUCAUAUCAAAGCUUCAUUGGUGACCUCAUUUGCUUUACAAGUGACCAGCCAU	0.195
UUGGCCCCAAGCCUGGGACUUGAGCCAUCGUAACUCACUAACAGGGAGAAUUAGCUAGUAGCAAUGUGCCUUGAUGAAGAUUUCCUGCAGGCAGCAAAACACCAAAUCAC	0.383
ACAAGAGCAGCCUGUGGCAUCUUUGCCUUGGGCUGCUCCUCAUGGUGGGUUCAGGGGACUCAGCCCUGAGGUGAAAGGGAGCUAUCAGGAACAGCUAUGGGAGCCCCAGG	0.414
AGGUUGCCACCCUUCAUAGAGUUUAGGCAUGCAGUUUGCUUAGCCAGUGUAGGAAGCCUCAUGAGAACAGAACCAUUAACAGCCAGAGUGCCAAUGGUGGGAUCAGCAGG	0.497
CCAACCCCAACAGACCCGUAGGGGGAGAAAAGGGAGGAAAAAAGUAAUUUUAAGGGGCCAAAGCUUUCCCUGAAGCAACCAAAGAUAUAUCCAAGUGCUUCCUCCAAGUC	0.249
CUUGCUGGUGUCCUGGGCAGCACCAUGAAUGCCUUUACCAAGACAUGCCAAGUUGGAUCCCCCGAAUGAAGCAGAUGUGGCUGUGGUGUGACCCUUGCUCCCUGCUACAC	0.364
